Measurements from different studies.
Each line is one published result; not all experiments were run side by side. Numbers after ± are the reported error.

COc1ccnc(C(=O)N[C@H]2COC(=O)[C@H](Cc3ccccc3)[C@@H](OC(=O)C(C)C)[C@H](C)OC2=O)c1OCOC(=O)C(C)C — DT50 (field soil, loam; normalised, southern France): 7.8 days
CC(C)C(=O)OC[C@H]1O[C@@H](n2ccc(NO)nc2=O)[C@H](O)[C@@H]1O — autosampler stability (rat amniotic fluid dialysate; 250 ng/mL, 6 h, 10 °C, high QC concentration, together with: NHC 1000 ng/mL): 95.5 ± 6.2%
CC(C)c1nc(N(C)S(C)(=O)=O)nc(-c2ccc(F)cc2)c1/C=C/[C@@H](O)C[C@@H](O)CC(=O)O — fatal TEAE incidence (healthy human volunteers; oral, 10 mg, monotherapy; baseline: subjects): 0%
C[C@@H](NC(=O)N1C(=O)[C@H](Cc2ccnc(N)c2)[C@H]1C(=O)O)C1CCCCC1 — abnormal liver function leading to discontinuation (healthy adult Chinese volunteers; continuous intravenous infusion, 1.0 mg/kg/h, 5-day infusion, CTCAE 5.0 grading): 0%
NCCCS(=O)(=O)O — terminal half-life (human, plasma; oral, 265 mg): ~14 h
C[C@@H]1NC(=O)[C@H](CCCCNC(=O)CO/N=C/C(=O)NCCCC[C@@H]2NC(=O)[C@@H](Cc3ccccc3)NC(=O)[C@H](CC(=O)O)NC(=O)CNC(=O)[C@H](CCCNC(=N)N)NC2=O)NC(=O)CNC(=O)[C@@H]2CCCN2C(=O)[C@H](CCCCNC(=O)CO/N=C/C(=O)NCCCC[C@@H]2NC(=O)[C@@H](Cc3ccccc3)NC(=O)[C@H](CC(=O)O)NC(=O)CNC(=O)[C@H](CCCNC(=N)N)NC2=O)NC(=O)[C@H](CCCCNC(=O)CCNC(=O)CCNC(=O)CCNC(=O)[C@H](CCCCN)NC(=O)[C@H](Cc2ccccc2)NC(=O)CNC(=O)CN2CCCNCCNCCCNCC2)NC(=O)[C@H](CCCCNC(=O)CO/N=C/C(=O)NCCCC[C@@H]2NC(=O)[C@@H](Cc3ccccc3)NC(=O)[C@H](CC(=O)O)NC(=O)CNC(=O)[C@H](CCCNC(=N)N)NC2=O)NC(=O)CNC(=O)[C@@H]2CCCN2C(=O)[C@H](CCCCNC(=O)CO/N=C/C(=O)NCCCC[C@@H]2NC(=O)[C@@H](Cc3ccccc3)NC(=O)[C@H](CC(=O)O)NC(=O)CNC(=O)[C@H](CCCNC(=N)N)NC2=O)NC1=O [copper-64 labelled] — tissue uptake (normal mice, blood; intravenous, 0.74 MBq, 24 h post-injection): 0.13 ± 0.02 %ID/g
CCCSc1ccc2nc(NC(=O)OC)[nH]c2c1 — blood pH (mouse, blood; oral, 50 mg/kg): 7.54
NCCCC[C@@H]1NC(=O)[C@@H](Cc2c[nH]c3ccccc23)NC(=O)[C@H](c2ccccc2)NC(=O)[C@@H]2C[C@@H](OC(=O)NCCN)CN2C(=O)[C@H](Cc2ccccc2)NC(=O)[C@H](Cc2ccc(OCc3ccccc3)cc2)NC1=O — subjects with upper abdominal pain (healthy human volunteers; 1950 µg twice daily): 9%
CCC[C@@](N)(CO)CCc1ccc(OCCCCCC(C)C)cc1 — AUC(0-t) (dog, male hounds, plasma; oral capsule, 10 mg/kg, geometric mean): 6.78 µM·h
O=C1Nc2cc3[nH]nc(-c4ccncc4)c3cc2CN1Cc1ccccc1 — patients with rash (CTCAE v4.03; human, relapsed or refractory advanced solid tumours; intravenous, 1.8 mg/kg, pooled schedules): 100%
C[C@]1(O)C[C@@](N)(c2ccc(-c3nc4n(c3-c3ccccc3)COc3ccncc3-4)cc2)C1 — patients with Anemia TEAE (human, advanced or metastatic solid tumours; 16 mg once daily, dose-response cohort): 0%
O=S(=O)(Nc1ccccc1)c1ccc(NC(=S)Nc2ccccc2)cc1 — relative organ weight (mouse, male, lung; oral, 80 mg/kg daily, 14 days; baseline: body weight): 0.74%
O.O.O.O.O.O.[Cl-].[Cl-].[Co+2] — cobalt in urine (rat male, urine; oral, 10 mg/kg single, day 2): 834 µg/L
Cn1cc(-c2nc(N[C@@H]3CCCC[C@@H]3N)c(F)c3c2C(=O)NC3)cn1 — hemorrhagic adverse events (measured: Gastrointestinal haemorrhage; patients with relapsed or refractory AML; oral, 60 mg twice daily): 13%
CC(C)(O)c1cc(Nc2cc(Oc3cn(C4CC4)nc3C3CCOCC3)ccn2)ccn1 — treatment-related adverse events (Asthenia; patients with advanced cancer, grade 4 glioma expansion; oral, 50 mg twice daily, grade ≥3, 2 weeks on/2 weeks off schedule): 0%
C[C@@H]1OC(=O)NN=C1c1ccc(-c2ccc(F)cc2)c(C(F)(F)F)c1 — patients with adverse event (phase I trial, measured: Nausea all grades; human patients; dose not given, all dose groups): 40%
Cc1nc(Nc2ncc(C(=O)Nc3c(C)cccc3Cl)s2)cc(N2CCN(CCO)CC2)n1 — deaths (human; oral, 100 mg): 0%
CC(C)[C@@H]1NC(=O)CNC(=O)[C@H](CC(N)=O)NC(=O)[C@H](CCCNC(=N)N)NC(=O)[C@H](Cc2ccc(O)cc2)NC(=O)[C@H](C(C)C)NC(=O)[C@@H](NC(=O)[C@@H](NC(=O)[C@H](CC(N)=O)NC(=O)[C@H](Cc2c[nH]c3ccccc23)NC(=O)[C@H](C)NC(=O)[C@H](Cc2ccccc2)NC(=O)CN)C(C)C)CSSC[C@@H](C(=O)N[C@@H](Cc2cnc[nH]2)C(=O)N[C@@H](CCCNC(=N)N)C(=O)N[C@@H](CCCNC(=N)N)C(=O)N[C@@H](C)C(=O)N[C@@H](CC(N)=O)C(N)=O)NC(=O)[C@H](C(C)C)NC(=O)[C@H](CCCNC(=N)N)NC1=O — blood urea nitrogen (ICR mouse, serum; ip, 10 mg/kg, 3 d dosing, blood day 5): 10.1 ± 0.83 mmol/L
Cc1ccccc1C(=O)NN=Cc1ccc(O)c(Br)c1 — Cmax (normal C3H/HeN mouse, plasma; intraperitoneal, 0.8 mg/kg): 0.0827 µg/mL
CC(=O)c1c(C)c2cnc(Nc3ccc(C4CCN(CCS(C)(=O)=O)CC4)cn3)nc2n(C2CCCC2)c1=O — patients with serious adverse reactions (HR+/HER2- advanced breast cancer patients; oral, 25 mg, dose escalation): 0%
CCc1ccc(CC/C=C/c2ccc3c(c2)C(=O)CC3)cc1 — Calcium (Sprague-Dawley rat, female; oral, 450 mg/kg/day, 14 days): 2.47 mM
COc1cc2c(Oc3ccc4[nH]c(C)cc4c3F)ccnc2cc1OCC1(N)CC1 — grade 3 Hyperuricemia (paediatric recurrent refractory sarcoma; 10 mg): 0%
C[C@]1(CO)Cc2ncn(-c3ccc(C#N)c(Cl)c3)c2C(=O)O1 — subjects with any TEAE (human; 2 mg single dose): 16.7%
Cn1ncc(-c2nc(N[C@H]3CC[C@H](N)CC3)ncc2Cl)c1CC1CC1 — AUC (HPLC-MS/MS; patients, plasma; oral, 11 mg, day 1): 0.828 µg·h/mL
O=C(Nc1ccccc1)C1CCN(C(=O)Oc2cccnc2)CC1 — adverse event Dyspnoea (healthy women; oral, 20 mg, 7 days): 0%
CO[C@H]1C[C@@H]2CC[C@@H](C)[C@@](O)(O2)C(=O)C(=O)N2CCCC[C@H]2C(=O)O[C@H]([C@H](C)C[C@@H]2CC[C@@H](OC(=O)NCCOCCOCCOCCOCCOCCOCCOCCOCCC(=O)N3CCc4cc(Cn5nc(-c6ccc7oc(N)nc7c6)c6c(N)ncnc65)ccc4C3)[C@H](OC)C2)C[C@@H](O)[C@H](C)/C=C(\C)[C@@H](O)[C@@H](OC)C(=O)[C@H](C)C[C@H](C)/C=C/C=C/C=C/1C — patients with AE (measured: gastric haemorrhage leading to dose reduction; patients with advanced solid tumours; intravenous, 1.6 mg/3 mg, grade ≥3, weekly): 0%
